Measured values pooled from the literature.
Parts stem from different laboratories: compare values within a part only. Positions count from the first letter of the parent shown.
UniProt Q38832, sequence (whole entry, looked up): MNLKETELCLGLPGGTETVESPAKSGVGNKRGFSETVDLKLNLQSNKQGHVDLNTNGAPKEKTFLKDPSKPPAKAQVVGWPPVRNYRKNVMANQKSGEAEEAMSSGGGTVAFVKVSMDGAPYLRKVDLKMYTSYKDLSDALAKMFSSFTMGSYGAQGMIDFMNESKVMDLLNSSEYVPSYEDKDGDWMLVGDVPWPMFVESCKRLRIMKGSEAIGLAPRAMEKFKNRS
UniProt Q93YR9, sequence (whole entry, looked up): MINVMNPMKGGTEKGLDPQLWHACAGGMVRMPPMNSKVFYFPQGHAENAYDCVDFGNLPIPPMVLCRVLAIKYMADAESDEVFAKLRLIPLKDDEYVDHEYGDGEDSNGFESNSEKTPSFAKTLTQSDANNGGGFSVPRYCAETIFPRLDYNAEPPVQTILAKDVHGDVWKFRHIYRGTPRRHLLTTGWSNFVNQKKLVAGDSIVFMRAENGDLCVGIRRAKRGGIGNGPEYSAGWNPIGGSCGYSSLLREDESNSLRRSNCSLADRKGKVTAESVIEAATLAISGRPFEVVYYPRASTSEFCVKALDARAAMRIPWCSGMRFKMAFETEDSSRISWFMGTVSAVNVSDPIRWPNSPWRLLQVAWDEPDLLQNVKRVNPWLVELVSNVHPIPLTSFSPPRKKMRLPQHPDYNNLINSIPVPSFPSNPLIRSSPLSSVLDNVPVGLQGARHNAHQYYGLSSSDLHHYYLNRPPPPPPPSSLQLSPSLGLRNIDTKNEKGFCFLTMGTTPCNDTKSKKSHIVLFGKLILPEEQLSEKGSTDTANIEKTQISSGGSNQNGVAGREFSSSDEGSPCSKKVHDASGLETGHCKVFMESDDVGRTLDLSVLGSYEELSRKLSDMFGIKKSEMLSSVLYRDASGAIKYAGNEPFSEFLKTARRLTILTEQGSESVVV
UniProt Q9C966, sequence (whole entry, looked up): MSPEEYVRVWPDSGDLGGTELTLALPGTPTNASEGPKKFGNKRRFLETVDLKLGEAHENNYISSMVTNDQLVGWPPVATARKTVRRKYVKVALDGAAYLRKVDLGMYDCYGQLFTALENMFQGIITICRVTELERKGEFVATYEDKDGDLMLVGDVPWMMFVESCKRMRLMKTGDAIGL
UniProt Q9ZSY8, sequence (whole entry, looked up): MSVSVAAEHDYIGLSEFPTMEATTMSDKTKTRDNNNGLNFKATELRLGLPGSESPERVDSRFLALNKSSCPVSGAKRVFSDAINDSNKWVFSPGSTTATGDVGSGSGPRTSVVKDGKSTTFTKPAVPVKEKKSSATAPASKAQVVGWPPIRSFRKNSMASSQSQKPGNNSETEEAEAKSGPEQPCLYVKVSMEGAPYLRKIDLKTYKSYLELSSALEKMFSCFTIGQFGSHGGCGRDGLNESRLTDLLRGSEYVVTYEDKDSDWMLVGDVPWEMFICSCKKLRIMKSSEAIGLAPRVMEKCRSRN
UniProt Q94JM3, sequence (whole entry, looked up): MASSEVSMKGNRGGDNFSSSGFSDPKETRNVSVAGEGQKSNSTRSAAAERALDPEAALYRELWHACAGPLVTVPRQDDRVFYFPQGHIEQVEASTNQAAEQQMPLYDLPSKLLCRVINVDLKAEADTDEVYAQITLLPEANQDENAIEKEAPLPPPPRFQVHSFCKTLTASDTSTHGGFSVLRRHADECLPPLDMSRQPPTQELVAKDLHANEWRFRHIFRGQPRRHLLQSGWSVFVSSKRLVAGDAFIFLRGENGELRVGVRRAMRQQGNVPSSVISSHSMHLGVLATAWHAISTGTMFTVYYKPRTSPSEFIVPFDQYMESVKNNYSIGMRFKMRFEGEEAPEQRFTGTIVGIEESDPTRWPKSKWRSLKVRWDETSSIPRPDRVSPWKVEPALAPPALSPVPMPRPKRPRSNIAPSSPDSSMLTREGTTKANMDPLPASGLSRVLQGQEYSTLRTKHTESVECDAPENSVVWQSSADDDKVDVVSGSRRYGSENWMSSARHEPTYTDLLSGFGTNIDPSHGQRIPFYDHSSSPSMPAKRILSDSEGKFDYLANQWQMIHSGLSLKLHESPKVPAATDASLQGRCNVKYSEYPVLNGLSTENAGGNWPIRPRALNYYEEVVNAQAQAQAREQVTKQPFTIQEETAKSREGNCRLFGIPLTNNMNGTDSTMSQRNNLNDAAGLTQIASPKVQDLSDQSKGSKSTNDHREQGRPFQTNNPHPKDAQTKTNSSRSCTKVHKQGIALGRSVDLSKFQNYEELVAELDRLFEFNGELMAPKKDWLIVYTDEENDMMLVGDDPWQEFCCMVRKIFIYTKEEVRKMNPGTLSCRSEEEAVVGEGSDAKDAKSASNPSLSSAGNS
UniProt O24407, sequence (whole entry, looked up): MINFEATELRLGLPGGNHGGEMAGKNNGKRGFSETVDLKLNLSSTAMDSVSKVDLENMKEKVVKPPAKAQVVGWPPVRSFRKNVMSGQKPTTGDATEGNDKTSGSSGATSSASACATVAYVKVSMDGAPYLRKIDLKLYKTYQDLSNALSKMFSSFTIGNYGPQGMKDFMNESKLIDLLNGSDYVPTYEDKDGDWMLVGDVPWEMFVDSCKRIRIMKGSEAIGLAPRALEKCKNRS

Study 1
Target: CCNE2, cyclin fold, Cln2 fusion (human)
Method: yeast growth competition, sequencing
Medium: yeast
Notes: strong parent motif
Relative to: not given
Direction: higher = stronger binding
Parent: viral docking peptide; YKVKRRLVFGADD; partner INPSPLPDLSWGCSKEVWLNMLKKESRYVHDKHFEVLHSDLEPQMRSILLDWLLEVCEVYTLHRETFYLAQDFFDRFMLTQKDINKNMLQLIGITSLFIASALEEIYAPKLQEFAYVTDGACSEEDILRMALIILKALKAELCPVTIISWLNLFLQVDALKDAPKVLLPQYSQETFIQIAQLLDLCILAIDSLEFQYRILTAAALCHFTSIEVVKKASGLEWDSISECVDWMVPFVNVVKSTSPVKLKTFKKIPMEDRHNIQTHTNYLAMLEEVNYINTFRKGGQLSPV
For `AKVKRRLVFGADD [Y1A]`, “normalised enrichment score” read 5.31.
`YKVKCRLVFGADD [R5C]` — result for “normalised enrichment score”: 0.877.
`YPVKRRLVFGADD [K2P]` — result for “normalised enrichment score”: 5.56.
`YKWKRRLVFGADD [V3W]`: “normalised enrichment score” 2.21.
`YKVKRRLVFGEDD [A11E]`: “normalised enrichment score” 6.
`YKVKRRPVFGADD [L7P]`: “normalised enrichment score” 0.195.
`YKVFRRLVFGADD [K4F]`: “normalised enrichment score” 1.12.
`YAVKRRLVFGADD [K2A]`: “normalised enrichment score” 5.41.
`YKVKARLVFGADD [R5A]` — result for “normalised enrichment score”: 0.351.
`YKVKRRLVFGASD [D12S]`: “normalised enrichment score” 5.71.
`YKVKRYLVFGADD [R6Y]`: “normalised enrichment score” 1.14.
Under “normalised enrichment score”, `YKVKKRLVFGADD [R5K]` is recorded as 2.99.
For `YKVKVRLVFGADD [R5V]`, “normalised enrichment score” read 0.802.
`YKVKRRLVFGARD [D12R]`: “normalised enrichment score” 4.24.
`YKVKRRLVFGATD [D12T]` — result for “normalised enrichment score”: 5.82.
`YKVKRRLVFGNDD [A11N]` — result for “normalised enrichment score”: 5.84.
`YKVKRRLVFGHDD [A11H]` — result for “normalised enrichment score”: 5.63.
`YNVKRRLVFGADD [K2N]` — result for “normalised enrichment score”: 6.11.
Under “normalised enrichment score”, `YFVKRRLVFGADD [K2F]` is recorded as 4.4.

Study 2
Sequence: B1 (IAA11)
Method: two-hybrid
Notes: weak activation fusion
Direction: higher = firmer interaction
B1: IAA11 (Arabidopsis thaliana, UniProt Q38829); chain MEGGSASGSASALSNDENLVVSCEDSSSPIGNELELGLTLSLGRKGYRDCRVYADDSSSSSSSSSLSRASVIAGIKRTADSMAATSGQVVGWPPIRTYRMNSMVNQAKASATEDPNLEISQAVNKNRSDSTKMRNSMFVKVTMDGIPIGRKIDLNAHKCYESLSNTLEEMFLKPKLGSRTLETDGHMETPVKILPDGSSGLVLTYEDKEGDWMLVGDVPWGMFIGSVRRLRIMKTSEATGKAQMIL
The positive tests was 0 (ARF16 570-670 (Arabidopsis thaliana, UniProt Q93YR9); relative to: out of 4 tests).
IAA14 (Arabidopsis thaliana, UniProt Q38832); relative to: out of 4 tests — positive tests: 0.
IAA27 (Arabidopsis thaliana, UniProt Q9ZSY8); relative to: out of 2 tests — positive tests: 0.
The positive tests was 2 (IAA16 (Arabidopsis thaliana, UniProt O24407); relative to: out of 4 tests).
ARF2 727-859 (Arabidopsis thaliana, UniProt Q94JM3); relative to: out of 4 tests — positive tests: 0.
IAA13 (Arabidopsis thaliana, UniProt Q38831); relative to: out of 2 tests — positive tests: 0.
For IAA15 (Arabidopsis thaliana, UniProt Q9C966); relative to: out of 2 tests: positive tests read 0.

Study 3
Target: Probable WRKY transcription factor 33, N-terminal DNA-binding domain (WRKY33, Arabidopsis thaliana, UniProt Q8S8P5, residues 169-264)
Method: DNA-protein interaction ELISA
Form: double-stranded DNA, one strand shown
Medium: in vitro, bacterial lysate
Concentration: not given
Notes: whole dsDNA probe, crude lysate protein
Relative to: highest signal in screen
Direction: higher = stronger binding
Residues (chain): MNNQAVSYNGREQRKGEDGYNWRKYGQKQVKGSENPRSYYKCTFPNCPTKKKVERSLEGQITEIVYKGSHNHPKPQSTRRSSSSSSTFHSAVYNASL
`AAAAAAGTGTGTGGCTCAGGATTCCCAAAA` has a relative absorbance of 20.7 % of maximum.
For `AAAAAAGCCATCATGGTTAGTGTACAAAAA`, the relative absorbance was 23.8 % of maximum.
`AAAAAAATTACGCGGGATCGCCAAAA` gave a relative absorbance of 18.3 % of maximum.
The relative absorbance of `AAAAAATTACGTTTGTATTTGTAAAA` is reported as 25.7 % of maximum.
The relative absorbance of `AAAAAACCCGGTTGGAGAAAATAATTAAAA` is reported as 20.5 % of maximum.
The relative absorbance of `AAAAAAAGTGGCCGCTAGTCAACTCAAAAA` is reported as 36.4 % of maximum.
The relative absorbance of `AAAAAATTACTTCTCCCTTCCTTTGCAAAA` is reported as 25.2 % of maximum.
`AAAAAAAGTTGTACTTATTATACTTTAAAA` has a relative absorbance of 36.2 % of maximum.

Study 4
Target: Centromere-binding protein 1, full length, His-tagged (CBF1, Saccharomyces cerevisiae, UniProt P17106, residues 1-351)
UniProt P17106, sequence (whole entry, looked up): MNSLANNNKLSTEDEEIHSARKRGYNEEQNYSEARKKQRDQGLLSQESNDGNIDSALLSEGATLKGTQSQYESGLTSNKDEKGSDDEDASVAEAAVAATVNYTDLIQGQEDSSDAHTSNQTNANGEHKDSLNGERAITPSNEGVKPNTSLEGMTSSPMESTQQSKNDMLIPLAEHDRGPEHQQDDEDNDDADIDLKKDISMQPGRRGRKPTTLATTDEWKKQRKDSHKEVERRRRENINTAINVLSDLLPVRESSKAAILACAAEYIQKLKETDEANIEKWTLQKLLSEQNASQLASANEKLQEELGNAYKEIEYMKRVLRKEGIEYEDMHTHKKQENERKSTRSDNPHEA
Method: competition protein-binding microarray
Form: double-stranded DNA, one strand shown
Medium: in vitro
Concentration: 2 µM
Notes: whole 60-bp probe, lowest competitor level
Together with: Pho4 competitor, 0.05 µM
Direction: higher = stronger binding
All sequences stand within: … GTCTTGATTCGCTTGACGCTGCTG
With `TCTCTCTGCTGATTGGACGTGGGTACGTACTATTTC` the fluorescence intensity was 67.1 a.u.
The fluorescence intensity of `CCACCGTTTGAGAGTGGTGTGACAGGACGCCCAAGA` is reported as 73.6 a.u.
`CGTCCTAGTGATTGTCACGAGACTTCCATGAGGAAG` has a fluorescence intensity of 1080 a.u.
With `CGGGGTTAAGTTTACCACGTGTTTTGCTTGCAGCAG` the fluorescence intensity was 1260 a.u.
For `CTTTCCCGATCTTGGGTTGTGGGTGTAGCACATTTG`, the fluorescence intensity was 77.4 a.u.
The fluorescence intensity of `CAAGCATAGCGTATACACGTGCAAACACAAGCATAC` is reported as 1310 a.u.
`TGCCAAGCACTTTTCATCATGACAATTAGGGTAGAT` gave a fluorescence intensity of 71.4 a.u.
With `AAAGTCTGCGACAATCACGTGCTAAAGCTGGTCTCA` the fluorescence intensity was 5360 a.u.

A few entries again (study 2):
IAA27 (Arabidopsis thaliana, UniProt Q9ZSY8); relative to: out of 2 tests — positive tests: 0.
The positive tests was 2 (IAA16 (Arabidopsis thaliana, UniProt O24407); relative to: out of 4 tests).
ARF2 727-859 (Arabidopsis thaliana, UniProt Q94JM3); relative to: out of 4 tests — positive tests: 0.
IAA13 (Arabidopsis thaliana, UniProt Q38831); relative to: out of 2 tests — positive tests: 0.
For IAA15 (Arabidopsis thaliana, UniProt Q9C966); relative to: out of 2 tests: positive tests read 0.
